Results of several laboratories.
Each line is one published result; not all experiments were run side by side. Numbers after ± are the reported error.
Target: Acetylcholinesterase (ache, Electrophorus electricus, UniProt O42275)
UniProt O42275, sequence (whole entry, looked up): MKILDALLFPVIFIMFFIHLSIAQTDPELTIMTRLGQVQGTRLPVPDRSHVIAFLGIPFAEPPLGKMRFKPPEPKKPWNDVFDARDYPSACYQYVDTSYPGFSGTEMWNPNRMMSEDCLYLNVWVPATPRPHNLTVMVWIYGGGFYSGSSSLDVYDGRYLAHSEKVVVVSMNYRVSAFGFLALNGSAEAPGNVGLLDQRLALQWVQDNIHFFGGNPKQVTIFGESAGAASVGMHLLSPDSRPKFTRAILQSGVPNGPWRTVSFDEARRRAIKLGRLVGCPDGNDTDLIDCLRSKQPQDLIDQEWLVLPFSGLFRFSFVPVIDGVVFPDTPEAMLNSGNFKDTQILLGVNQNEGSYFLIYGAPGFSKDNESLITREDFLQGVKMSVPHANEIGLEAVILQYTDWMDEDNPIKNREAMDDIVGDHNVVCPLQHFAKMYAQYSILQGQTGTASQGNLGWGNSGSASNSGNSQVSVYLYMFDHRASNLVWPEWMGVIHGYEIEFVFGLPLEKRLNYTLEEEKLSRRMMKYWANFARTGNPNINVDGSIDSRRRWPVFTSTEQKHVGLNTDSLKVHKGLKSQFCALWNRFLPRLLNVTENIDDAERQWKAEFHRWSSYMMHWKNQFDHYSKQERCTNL
Observed: enzyme activity
Action: inhibitor

CCc1nc2ccc(C(=O)NCCCn3ccnc3)cn2c1N(C)Cc1ccc(N(C)C)cc1 — IC50 (Ellman): 3560 nM
O=C(O)C(/C=C/c1ccc(Cl)cc1)=N\Nc1nc(-c2ccc(Br)cc2)cs1 — IC50 (Ellman): 117 nM
O=S(=O)(CCc1cn(-c2cnc3ccccc3c2)nn1)N1CCc2ccccc2C1 — IC50 (Ellman): 22 nM
O=S(=O)(N/N=C/c1ccc(OS(=O)(=O)c2ccc(Br)cc2)cc1)c1ccc(Cl)cc1 — IC50 (Ellman): 12.6 nM
CCCCc1nc2ccc(/N=N/c3ccc(Br)cc3)cc2c(-c2ccccc2)c1I — IC50 (Ellman; pH 7.4): 6950 nM
O=[N+]([O-])c1ccc(S(=O)(=O)Oc2ccc(/C=N/NS(=O)(=O)c3cc(Cl)ccc3Cl)cc2)cc1 — IC50 (Ellman): 72.1 nM
O=C(O)C(/C=C/c1ccc(Cl)cc1)=N\Nc1nc(-c2ccc(Cl)cc2)cs1 — IC50 (Ellman): 481 nM
O=C(Nc1cccnc1)c1cccc(C2(CNCc3ccc(F)c(F)c3)CC2)c1 — IC50 (Ellman): 5860 nM
O=S(=O)(N/N=C/c1ccc(OS(=O)(=O)c2ccc(Br)cc2)cc1)c1cc(Cl)ccc1Cl — IC50 (Ellman): 42.6 nM
CCN(CC)CCNC(=O)c1ccc(Nc2nccc3[nH]c(-c4cccc(OC)c4F)nc23)cc1 — IC50 (Ellman): 2780 nM
Cc1cc(C)cc(-n2cc(CCS(=O)(=O)NCCc3c[nH]c4ccc(Cl)cc34)nn2)c1 — IC50 (Ellman): 91 nM
COc1ccc(S(=O)(=O)Oc2ccc(/C=N/NS(=O)(=O)c3ccc(Cl)cc3)cc2)cc1 — IC50 (Ellman): 24.7 nM
CCc1nc2ccc(C(=O)NCCCN(C)C)cn2c1N(C)Cc1cccs1 — IC50: 3710 ± 14000 nM
O=C(O)C(/C=C/c1c(Cl)cccc1Cl)=N\Nc1nc(-c2ccccc2)cs1 — IC50 (Ellman): 944 nM
